Results from different studies.
Each numbered part is a random draw from the data of one study; scales do not carry over between parts.

Set 1
Target: Max-binding protein MNT, bHLH-zipper, MAX partner unstated (MNT, Homo sapiens, UniProt Q99583, residues 220-300)
Technique: protein-binding microarray
Form: double-stranded DNA, one strand shown
Matrix: in vitro
Tested at: not given
Notes: k-mer, scored over probes, only values ≥0.25
Reading: higher = stronger binding
Endpoint: E-score
Residues (chain): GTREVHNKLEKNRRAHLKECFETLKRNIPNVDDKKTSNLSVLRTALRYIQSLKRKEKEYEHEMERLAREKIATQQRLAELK
ACATGCAG: 0.32
CGTGCACC: 0.378
ACATGCAT: 0.349
CATGCATA: 0.274

Set 2
Target: Interferon regulatory factor 5, full length, phosphomimetic (IRF5, Homo sapiens, UniProt Q13568-2, residues 1-514, K96S/S451D/S453D/S456D/S462D)
Technique: protein-binding microarray
Form: double-stranded DNA, one strand shown
Matrix: in vitro
Tested at: 250 nM
Notes: 60-bp whole probe
Added: salmon DNA 0.4 mg/ml
Relative to: random background probes
Reading: higher = stronger binding
Endpoint: log fluorescence
GCCTAGCACTTAGAACTGAGTAACGATTAGTGCTAGGTCTTGATTCGCTTGACGCTGCTG: 0.29 z-score
GCCTAGCACGACGGACTGGGGTTTCGAGACGTGCTAGTCTTGATTCGCTTGACGCTGCTG: 0.88 z-score
GCCTAGCACGACGGTTTCCTTCTACTGACGTGCTAGGTCTTGATTCGCTTGACGCTGCTG: 1.09 z-score
GCCTAGCACTTAGGTATCGGTTTCGGTTCGTGCTAGGTCTTGATTCGCTTGACGCTGCTG: 10.7 z-score

Set 3
Target: Histone acetyltransferase KAT6A, winged helix 2, GST fusion (KAT6A, Homo sapiens, UniProt Q92794, residues 85-181)
Technique: protein binding microarray
Form: double-stranded DNA, one strand shown
Matrix: in vitro
Tested at: not given
Notes: 8-mer, flanks averaged, mean of 2 arrays, mostly near background
Relative to: not given
Reading: higher = stronger binding
Endpoint: E-score
Target sequence (chain): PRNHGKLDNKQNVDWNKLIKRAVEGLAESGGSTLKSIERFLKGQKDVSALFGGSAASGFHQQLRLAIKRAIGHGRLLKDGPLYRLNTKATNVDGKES
ACACGAGC: 0.0086
CGACTGAC: -0.149
CAAGCAAC: 0.0976
AATATTCG: 0.103

Further values, each from its own experiment
PhoQ, residues 284 288 289 292 302 303 AQGLTV
fold induction (PhoP, residues 12 14 15 18 19 LYHSL (Escherichia coli, UniProt P23836); Sort-seq, measured: YFP reporter; E. coli; PhoQ-PhoP variant library, added: 10 µM Mg2+; relative to: high Mg2+ state, higher = stronger signaling): 2.22

For quick reference, copied from above (set 3):
AATATTCG: 0.103
